# Published values collected from several papers.
# Protocols differ between the studies behind these lines. “And” joins repeats or separate records; there may be more than shown. ± gives the spread as reported.
Structure (SMILES),assay,test system,conditions,scale,quantity,value
CSCC[C@@H]1NC(=O)[C@@H]2CSSC[C@H](NC(=O)[C@H](CO)NC(=O)[C@H](C)N)C(=O)N[C@@H](CCCNC(=N)N)C(=O)N[C@@H]([C@@H](C)O)C(=O)N3CCC[C@H]3C(=O)N[C@@H](CCCCN)C(=O)N[C@@H](CC(=O)O)C(=O)N[C@H]3CSSC[C@H](NC(=O)[C@H](CCCCN)NC(=O)[C@H](CCCNC(=N)N)NC(=O)[C@H](CC(N)=O)NC1=O)C(=O)N[C@@H](CCCCN)C(=O)N[C@H]1CSSC[C@H](NC(=O)[C@@H]4CCCN4C(=O)[C@H](CC(=O)O)NC(=O)[C@H](C)NC3=O)C(=O)N[C@@H](C)C(=O)N[C@@H](CCCCN)C(=O)N[C@@H](CCC(=O)O)C(=O)N[C@@H]([C@@H](C)O)C(=O)NCC(=O)N[C@@H](CSSC[C@@H](C(N)=O)NC(=O)[C@H](CCCNC(=N)N)NC(=O)[C@H](CC(N)=O)NC1=O)C(=O)N1CCC[C@H]1C(=O)N[C@@H](Cc1ccc(O)cc1)C(=O)NCC(=O)N[C@@H](CCCCN)C(=O)N2,,"DA rat, pristane-induced arthritis, serum","subcutaneous, 0.1 mg/kg once weekly, end of 21-day trial",,albumin,3.62 g/dL
CCCCCCCC(=O)OC[C@H](NC(=O)[C@H](CO)NC(=O)CN)C(=O)N[C@@H](Cc1ccccc1)C(=O)N[C@@H](CC(C)C)C(=O)N[C@@H](CO)C(=O)N1CCC[C@H]1C(=O)N[C@@H](CCC(=O)O)C(=O)N[C@@H](Cc1cnc[nH]1)C(=O)N[C@@H](CCC(N)=O)C(=O)N[C@@H](CCCNC(=N)N)C(=O)N[C@H](C(=O)N[C@@H](CCC(N)=O)C(=O)N[C@@H](CCC(N)=O)C(=O)N[C@@H](CCCNC(=N)N)C(=O)N[C@@H](CCCCN)C(=O)N[C@@H](CCC(=O)O)C(=O)N[C@@H](CO)C(=O)N[C@@H](CCCCN)C(=O)N[C@@H](CCCCN)C(=O)N1CCC[C@H]1C(=O)N1CCC[C@H]1C(=O)N[C@@H](C)C(=O)N[C@@H](CCCCN)C(=O)N[C@@H](CC(C)C)C(=O)N[C@@H](CCC(N)=O)C(=O)N1CCC[C@H]1C(=O)N[C@@H](CCCNC(=N)N)C(=O)O)C(C)C,,"human, plasma","intravenous infusion, 3 µg/kg/h",reference: baseline,peak concentration fold increase,355 fold
COc1cc(NC(=O)C(=O)c2c(C)n(Cc3ccc(Cl)cc3)c3ccc(C)cc23)ccn1,,"cynomolgus monkey, female, plasma","intravenous, 1 mg/kg",,t1/2,28.2 h and 36.7 h and 31.4 h and 18.1 h and 28.3 h
CC(C)[C@H](NC(=O)CNC(=O)[C@H](CCC(N)=O)NC(=O)[C@H](C)N)C(=O)O,,human,"single dose, 10 mg/kg, unlikely related or unrelated",,unrelated adverse events,33.3%
CC[C@H](C)[C@H](NC(=O)[C@H](CC(N)=O)NC(=O)[C@H](Cc1ccccc1)NC(=O)CNC(=O)[C@H](CC(C)C)NC(=O)[C@H](Cc1ccccc1)NC(=O)[C@H](Cc1ccccc1)NC(=O)Cc1ccc2ccccc2c1)C(=O)O,,water,"overnight, pH 6.4, hydrogel formation",,minimum gelation concentration,622 µM
CC(C)[C@H](NC(=O)[C@H](Cc1c[nH]c2ccccc12)NC(=O)[C@H](Cc1ccccc1)NC(=O)[C@@H](NC(=O)[C@@H](NC(=O)[C@H](CCCCN)NC(=O)[C@@H](N)CCCCN)C(C)C)C(C)C)C(=O)N[C@@H](CCCCN)C(=O)N[C@@H](Cc1ccccc1)C(=O)N[C@@H](CCCCN)C(N)=O,"ELISA, item: IL-2","mouse, blood","intravenous, 500 µg/kg, 5 days",,cytokine level,10.8 ± 0.95 pg/mL
N=C(N)NCc1ccc(C(=O)NCCCC[C@H](NC(=O)N[C@@H](CCC(=O)O)C(=O)O)C(=O)O)cc1[211At],,"SCID mouse, PC-3 xenografts, brain",4 h,,tissue uptake,0.09 ± 0.03 %ID/g
CCCC[C@H]1C(=O)N(C)[C@@H](CCCC)C(=O)N[C@@H](CCCNC(=O)CN2CCN(CC(=O)O)CCN(CC(=O)O)CCN(CC(=O)O)CC2)C(=O)N[C@H](C(=O)NCC(N)=O)CSCC(=O)N[C@@H](Cc2ccc(O)cc2)C(=O)N(C)[C@@H](C)C(=O)N[C@@H](CC(N)=O)C(=O)N2CCC[C@H]2C(=O)N[C@@H](Cc2c[nH]cn2)C(=O)N[C@@H](CC(C)C)C(=O)N(C)CC(=O)N[C@@H](Cc2c[nH]c3ccccc23)C(=O)N[C@@H](CO)C(=O)N[C@@H](Cc2c[nH]c3ccccc23)C(=O)N1C [gallium-68 labelled],static PET,"NOD/SCID mice, CHO-hPD-L1 xenograft, CHO-hPD-L1 tumour","intravenous, 1 h post injection, before PBS treatment",,tumour uptake,5.46 ± 1.07 %ID/g
C[C@]12CC[C@H](O)CC1CCC1C2[C@H](O)C(=O)[C@]2(C)[C@@H](c3ccc(=O)oc3)CC[C@]12O (stereo partly drawn),"sulfation, substrate",pooled human liver cytosol,pH 7.4,,CLint,1 µL/min/mg
CC(C)(O)c1ccccc1CC[C@H](c1cccc(/C=C/c2ccc3ccc(Cl)cc3n2)c1)[S+]([O-])CC1(CC(=O)O)CC1 (stereo partly drawn),,human liver mitochondrial preparation,"1 µM, 30 min, 0.5 mg/mL protein",,percent metabolized,0%
CSCC[C@H](NC(=O)CNC(=O)[C@H](CC(=O)O)NC(=O)[C@@H](NC(=O)[C@@H](NC(=O)[C@@H](NC(=O)CNC(=O)[C@H](CCC(N)=O)NC(=O)[C@H](CCSC)NC(=O)[C@H](CC(=O)O)NC(=O)[C@H](C)NC(=O)[C@H](C)NC(=O)[C@@H](NC(=O)[C@H](CO)NC(=O)[C@@H](N)CC(C)C)[C@@H](C)O)C(C)C)C(C)C)[C@@H](C)O)C(=O)N[C@@H](C)C(=O)N[C@@H](CO)C(=O)NCC(=O)N[C@@H](CC(C)C)C(=O)N[C@@H](CC(=O)O)C(=O)N[C@@H](CCCCN)C(=O)N[C@@H](CC(=O)O)C(=O)N[C@@H](Cc1ccc(O)cc1)C(=O)N[C@@H](CC(C)C)C(=O)N[C@@H](CCCCN)C(=O)N1CCC[C@H]1C(=O)N[C@@H](CC(=O)O)C(=O)N[C@@H](CC(=O)O)C(=O)O,LC-MS/MS,"patients, serum","intravenous infusion, 2.50 mg/kg",,terminal half-life (t1/2γ),1.61 h
N#CC1(c2ccc3c(N)ncnn23)OC(COP(=O)(O)OP(=O)(O)OP(=O)(O)O)C(O)C1O (stereo not drawn),LC-MS/MS,"CD-1 mouse, lung","oral, 100 mg/kg of remdesivir",,AUC(0-t),355 nmol·h/kg
CCCCCCCC/C=C\CCCCCCCCOP(O)(O)=S.N,,"mouse, male, irradiated","sc, dose not given, 15.6 Gy partial-body, dosed 24 h after",,AUC(0-inf),1720 ng·h/mL
CCCCCCCCCCCCCCCC(=O)NCCCCCCNC(=O)C(CCCCNC(=O)CCN1C(=O)CC(SC[C@H](NC(=O)[C@H](CCCNC(=N)N)NC(=O)CNC(=O)[C@H](CCCCN)NC(=O)[C@@H](NC(=O)[C@H](CC(C)C)NC(=O)[C@H](Cc2c[nH]c3ccccc23)NC(=O)[C@H](C)NC(=O)[C@@H](NC(=O)[C@H](Cc2ccccc2)NC(=O)[C@H](CCC(=O)O)NC(=O)[C@H](CCCCN)NC(=O)[C@H](C)NC(=O)[C@H](C)NC(=O)[C@H](CCC(N)=O)NC(=O)CNC(=O)[C@H](CCC(=O)O)NC(=O)[C@H](CC(C)C)NC(=O)[C@H](Cc2ccc(O)cc2)NC(=O)[C@H](CO)NC(=O)[C@H](CO)NC(=O)[C@@H](NC(=O)[C@H](CC(=O)O)NC(=O)[C@H](CO)NC(=O)[C@@H](NC(=O)[C@H](Cc2ccccc2)NC(=O)[C@@H](NC(=O)CNC(=O)[C@H](CCC(=O)O)NC(=O)CNC(=O)[C@@H](N)Cc2c[nH]cn2)[C@@H](C)O)[C@@H](C)O)C(C)C)[C@@H](C)CC)C(C)C)C(N)=O)C1=O)NC(=O)CCN1C(=O)CC(SC[C@H](NC(=O)[C@H](CCCNC(=N)N)NC(=O)CNC(=O)[C@H](CCCCN)NC(=O)[C@@H](NC(=O)[C@H](CC(C)C)NC(=O)[C@H](Cc2c[nH]c3ccccc23)NC(=O)[C@H](C)NC(=O)[C@@H](NC(=O)[C@H](Cc2ccccc2)NC(=O)[C@H](CCC(=O)O)NC(=O)[C@H](CCCCN)NC(=O)[C@H](C)NC(=O)[C@H](C)NC(=O)[C@H](CCC(N)=O)NC(=O)CNC(=O)[C@H](CCC(=O)O)NC(=O)[C@H](CC(C)C)NC(=O)[C@H](Cc2ccc(O)cc2)NC(=O)[C@H](CO)NC(=O)[C@H](CO)NC(=O)[C@@H](NC(=O)[C@H](CC(=O)O)NC(=O)[C@H](CO)NC(=O)[C@@H](NC(=O)[C@H](Cc2ccccc2)NC(=O)[C@@H](NC(=O)CNC(=O)[C@H](CCC(=O)O)NC(=O)CNC(=O)[C@@H](N)Cc2c[nH]cn2)[C@@H](C)O)[C@@H](C)O)C(C)C)[C@@H](C)CC)C(C)C)C(N)=O)C1=O (stereo partly drawn),,"Kunming mouse, plasma","subcutaneous, 50 nmol/kg",,t1/2,7 ± 0.7 h
CC(C)(C)c1ccc(COc2cc3c(=O)c(C(=O)NCCNCCO)cn(Cc4ccccc4)c3cc2Cl)cc1,metabolic stability,"male rat, liver microsomes",1 µM,,microsomal CLint,< 11.6 µL/min/mg
CC[C@H](C)C(=O)N1CCC(NC(=O)Nc2ccc(OC(F)(F)F)c(F)c2)CC1,,"healthy volunteers, both sexes","oral, 8 mg, fasted state",,subjects with injection site reaction,0%
O=c1cc(-c2ccccc2)oc2c(Br)c(O)c(O)c(O)c12,,"C57BL/6 mouse, plasma","oral, 50 mg/kg, single dose",,MRT(0-t),4.5 h
CN(CC(=O)N(Cc1ccc(C2CCCCC2)cc1)c1ccc(C(=O)O)cc1)S(=O)(=O)c1c(F)c(F)c(F)c(F)c1F,,,"100 µM, added: 10 mM glutathione",,half-life of GSH adduct formation,1.32 h
CCNC(=O)C1OC(n2cnc3c(N)ncnc32)C(O)C1O (stereo not drawn),IAM chromatography,,pH 7.4,,log kIAM,-0.57
CC(=O)OC1O[C@@H]2O[C@@]3(C)CC[C@H]4[C@H](C)CCC([C@H]1C)[C@@]24OO3 (stereo partly drawn),,Tg(fli1:EGFP) zebrafish embryos,"10 µg/mL, up to 48 hpf",,dead embryos,3 count
CCCCCCCCCCCCC(=O)O.O=C1CCCC2C3CCCN4CCCC(CN12)C34 (stereo not drawn),shake-flask,ultrapure water,"pH 7.0, 37 °C",,log octanol-water partition coefficient,0.65

# A few entries again:
Structure (SMILES),assay,test system,conditions,scale,quantity,value
CCNC(=O)C1OC(n2cnc3c(N)ncnc32)C(O)C1O (stereo not drawn),IAM chromatography,,pH 7.4,,log kIAM,-0.57
CC(=O)OC1O[C@@H]2O[C@@]3(C)CC[C@H]4[C@H](C)CCC([C@H]1C)[C@@]24OO3 (stereo partly drawn),,Tg(fli1:EGFP) zebrafish embryos,"10 µg/mL, up to 48 hpf",,dead embryos,3 count
